Results from different studies.
Parts stem from different laboratories: compare values within a part only.

Series 1 — method: universal PBM; molecule type: double-stranded DNA, one strand shown; matrix: in vitro; concentration: 600 nM; direction: higher = stronger binding
Target: Sal-like protein 4, full length isoform A (SALL4, Homo sapiens, UniProt Q9UJQ4, residues 1-1053)
Sequence of UniProt Q9UJQ4 (whole entry, looked up): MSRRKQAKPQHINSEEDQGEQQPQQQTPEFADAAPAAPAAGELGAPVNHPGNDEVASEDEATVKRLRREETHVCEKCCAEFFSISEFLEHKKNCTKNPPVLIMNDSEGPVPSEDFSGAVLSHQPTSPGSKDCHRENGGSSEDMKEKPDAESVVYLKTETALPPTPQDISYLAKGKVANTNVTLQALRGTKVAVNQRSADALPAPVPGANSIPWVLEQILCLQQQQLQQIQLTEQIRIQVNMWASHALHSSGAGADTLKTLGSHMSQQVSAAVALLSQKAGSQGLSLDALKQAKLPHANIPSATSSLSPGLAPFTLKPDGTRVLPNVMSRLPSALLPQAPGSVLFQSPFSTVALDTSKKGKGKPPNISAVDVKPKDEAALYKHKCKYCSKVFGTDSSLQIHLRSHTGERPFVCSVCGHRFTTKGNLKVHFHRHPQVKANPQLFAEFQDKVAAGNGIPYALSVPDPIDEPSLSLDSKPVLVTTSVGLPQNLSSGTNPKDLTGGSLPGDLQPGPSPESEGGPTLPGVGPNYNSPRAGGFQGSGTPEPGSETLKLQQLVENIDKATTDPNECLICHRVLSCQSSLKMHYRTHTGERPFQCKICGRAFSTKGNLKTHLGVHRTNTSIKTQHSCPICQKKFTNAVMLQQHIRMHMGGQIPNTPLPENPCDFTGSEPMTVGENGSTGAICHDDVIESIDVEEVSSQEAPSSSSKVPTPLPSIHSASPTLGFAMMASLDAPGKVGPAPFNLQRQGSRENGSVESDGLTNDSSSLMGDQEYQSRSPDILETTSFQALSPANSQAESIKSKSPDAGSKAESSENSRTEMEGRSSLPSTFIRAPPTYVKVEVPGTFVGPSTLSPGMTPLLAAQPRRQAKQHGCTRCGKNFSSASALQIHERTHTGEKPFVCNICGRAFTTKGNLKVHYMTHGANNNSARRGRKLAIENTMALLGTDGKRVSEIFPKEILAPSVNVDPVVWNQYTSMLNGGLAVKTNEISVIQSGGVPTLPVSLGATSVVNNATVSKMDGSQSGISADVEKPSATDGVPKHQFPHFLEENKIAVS
Setting: 8-mer, flanks averaged, mean of replicates
Strand | E-score
GCGAGACA | -0.309
GGTCCGCA | -0.283
CGCTCAAA | -0.144
ATGTGCCG | -0.126
CCCCTTAA | -0.0162
GTCGGTAA | -0.0514
AAGACAGG | 0.036
GTCGTAAA | 0.0896

Series 2 — method: protein binding microarray; molecule type: double-stranded DNA, one strand shown; matrix: in vitro; concentration: not given; relative to: not given; direction: higher = stronger binding
Target: Histone acetyltransferase KAT6A, winged helix 1, GST fusion (KAT6A, Homo sapiens, UniProt Q92794, residues 1-85)
Setting: 8-mer, flanks averaged, mean of 2 arrays, mostly near background
Residues (chain): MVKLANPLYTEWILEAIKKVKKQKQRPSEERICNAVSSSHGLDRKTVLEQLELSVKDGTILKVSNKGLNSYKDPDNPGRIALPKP
Strand | E-score
TGACTGCA | -0.144
AGCAGTGA | -0.118
ATCGGTCC | 0.137
GAGCAGGA | -0.0433
CTGTGAAG | -0.135
ACCGTCTA | 0.034

Series 3 — method: protein-binding microarray; molecule type: double-stranded DNA, one strand shown; matrix: in vitro; concentration: 0.8 µM; setting: whole 60-bp probe, no competitor; direction: higher = stronger binding; shared flanks, not repeated: … GTCTTGATTCGCTTGACGCTGCTG
Target: Centromere-binding protein 1, full length, N-terminal tag (CBF1, Saccharomyces cerevisiae, UniProt P17106, residues 1-351)
Sequence of UniProt P17106 (whole entry, looked up): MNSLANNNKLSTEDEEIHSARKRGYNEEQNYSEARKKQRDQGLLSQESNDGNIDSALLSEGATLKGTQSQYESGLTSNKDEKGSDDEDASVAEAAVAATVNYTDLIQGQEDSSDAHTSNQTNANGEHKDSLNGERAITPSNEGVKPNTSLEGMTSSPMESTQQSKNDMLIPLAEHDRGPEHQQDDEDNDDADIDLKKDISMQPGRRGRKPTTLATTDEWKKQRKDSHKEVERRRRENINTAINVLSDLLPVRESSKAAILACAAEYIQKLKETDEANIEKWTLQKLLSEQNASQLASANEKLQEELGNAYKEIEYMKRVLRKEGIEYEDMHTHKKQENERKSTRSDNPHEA
Strand | fluorescence intensity
CCTAACTACTATACCGGCGTGCAATAGCTTCGTACA | 518 a.u.
CCTAACTACTATACACGTGCCATATAGCTTCGTACA | 9010 a.u.
CTAACGCTTTTTCGTGAGGTGTACTACCATTCATTC | 539 a.u.
GAAATATTATCAATTCACGTTTTGCTGCTTATTTAG | 590 a.u.
GAAAGTGGCTACCATCATGAGATATGATATTCTTAG | 550 a.u.
GAACACTGGTACTGGCACGGGTGTTTGGAAAAATAG | 610 a.u.
GAAAAGAATACTTCAGACGTGATAAAAATTTACTAG | 592 a.u.

Mixed results
Molecule | target | test | test system | setting | how to read | measurement | value
PhoQ, residues 284 288 289 292 302 303 AAQSYM | PhoP, residues 12 14 15 18 19 LYFRQ (Escherichia coli, UniProt P23836) | Sort-seq, refers to: YFP reporter | E. coli | PhoQ-PhoP variant library, together with: 10 µM Mg2+ | relative to: high Mg2+ state, higher = stronger signaling | fold induction | 18.4

Excerpt of the above (series 1):
Strand | E-score
GTCGGTAA | -0.0514
AAGACAGG | 0.036
GTCGTAAA | 0.0896
